Assay results pooled from the literature.
Each numbered part is a random draw from the data of one study; scales do not carry over between parts. Substitutions count along the parent as printed.

Set 1 — method: RNA Bind-n-Seq; form: RNA; medium: in vitro; concentration: 365 nM; reference: no-protein control; reading: higher = stronger binding
Target: RNA binding protein fox-1 homolog 2, RRM domain, GST-SBP tag (RBFOX2, Homo sapiens, UniProt O43251-10, residues 100-194)
Notes: natural RNA segment, single round, ends assumed
Construct (chain): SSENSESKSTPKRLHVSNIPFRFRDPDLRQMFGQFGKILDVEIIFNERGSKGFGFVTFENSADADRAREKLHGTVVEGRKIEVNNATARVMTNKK
For `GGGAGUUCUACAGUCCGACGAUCUCCUACUUCGUUCCCCCUUUGUAAGUCUCUGGAGGAUGUGACCAAGGUCUCCCGUGAGUGUCUGUCGGGCACCCAGGUUGUAGGUGUUUGAGAUUCUGUAGGAGGGAGGGUGGAAUUCUCGGGUGCCAA`, “RBNS enrichment (R)” read 0.761.
`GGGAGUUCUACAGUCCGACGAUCGUCAUAAGCACUACCACUAAGGACUCUCUGGAGGACUCCUCAGUAUCAUCUGCUCCAGGAAGCCCCCUAGACUACCUCCUGAGUCUGGACAAAGCCUCCUGAUUCUACCUUGGAAUUCUCGGGUGCCAA`: “RBNS enrichment (R)” 0.601.
Under “RBNS enrichment (R)”, `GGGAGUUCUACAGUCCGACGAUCAUGGUUAAAGAGAAGGCUUUCAAGAACUUUGGAAUAAGAGGCCUGUUUUUAAAAAGGAACUGCCGCAAUCUCUGAAAGACUUCCAAAGAACGUUAGAGCACAGUACAUACUGGAAUUCUCGGGUGCCAA` is recorded as 0.368.
`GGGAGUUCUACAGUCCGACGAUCUCUCUGUGGUCCCUUCCAAUGCUGUGGGUUUCCAACCAGGGGAAGGGUCCCUUUUGCAUUGCCAAGUGCCAUAACCAUGAGCACUACUCUACCAUGGUUCUGCCUCCUGGUGGAAUUCUCGGGUGCCAA` — result for “RBNS enrichment (R)”: 0.477.
`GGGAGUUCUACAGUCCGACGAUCUGUCCAGACCAUUGUCUUCCAACCCCAGCUGGCCUCUAGAACACCCACUGGCCAGUCCUAGAGCUCCUGUCCCUACCCACUCUUUGCUACAAUAAAUGCUGAAUGAAUCCUGGAAUUCUCGGGUGCCAA`: “RBNS enrichment (R)” 0.776.
`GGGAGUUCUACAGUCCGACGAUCCCAAUGGUGUGAGGUCUGGAAUGUAAGCCCCCAUCCACACAUGGACCACGCAAAGUGCUGGACACAUCAGUCAUCUCCAACUGGCUGAAAGGCUGAACCUCAGGGCUCCAUGGAAUUCUCGGGUGCCAA` — result for “RBNS enrichment (R)”: 0.311.
Under “RBNS enrichment (R)”, `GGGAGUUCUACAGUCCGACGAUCCCACUACACUUCAGACCAAUGGGACAGUCAUAGAUGGUGUGACAGUGUUUAAACGCAACAAAAGGCUACAUUUCCAUGGGGCCAGCACUGUCAUGAGCCUCACUAAGCUAUGGAAUUCUCGGGUGCCAA` is recorded as 0.499.
For `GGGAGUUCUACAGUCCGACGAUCAACUUGUAUAUCAUGCUCCCUCAAAGAAUGUGCGAUAGAUUAUUUUAAGACCAUGAUAAUAGAGUAAAAAGGAAAGAAAGCCAGAAAUUACAAUUUUGGAUGCUAAAAAGUGGAAUUCUCGGGUGCCAA`, “RBNS enrichment (R)” read 1.39.
For `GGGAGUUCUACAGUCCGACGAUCUUUUCUUUCUCUUUUUUUUUUUUGUAUAUUAUUGUUUACAAUAAAUAUACAUUGCAUUAAAAAGAAAGUGGCCCUGUGGAUUUAUUCACCCAGUUCUCCUGUUGGAUGAUUGGAAUUCUCGGGUGCCAA`, “RBNS enrichment (R)” read 0.471.
For `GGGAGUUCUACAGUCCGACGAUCAUUAAUUGAAUCUAGUAUAUGCGGGAUGUACGACAUUUUGUGACUGAAGAGACUUGUUUCCUUCUACUUUUAUGUGUCUCAGAAUAUUUUUGAGGCGAAGGCGUCUGUCUUGGAAUUCUCGGGUGCCAA`, “RBNS enrichment (R)” read 0.532.
`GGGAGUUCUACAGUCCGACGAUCACAGGGCAGGGGGCAGCAGGAUACCUCCAGCCAGGCCUCUGUGGCCUCUGUUUCCUUCUCCCUUUCUUGGCCCUCCUCUGCUCCUCCCCACACCCUGCAGGCAAAAGAAAUGGAAUUCUCGGGUGCCAA` — result for “RBNS enrichment (R)”: 0.582.
For `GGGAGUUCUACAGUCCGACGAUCAAUAGUGUGAUGUUUGGAUUGAUAUCGUGAAAUCCUCAGCCGAGAAAUUGGGCUGGAUUGUGCUUUGGUUAAUACAUCUUUCCCUAAAGAAGAUAAACACAAAAUCCAUUUGGAAUUCUCGGGUGCCAA`, “RBNS enrichment (R)” read 0.455.

Set 2 — method: DHFR PCA, deep sequencing; medium: yeast; together with: (+)-ABA 1.4 µM; reference: wild-type fitted maximum; reading: higher = stronger binding
Target: ABI1, truncated, D143A, DHFR fusion (Arabidopsis thaliana)
Notes: methotrexate growth selection, single substitutions
Parent: PYL1, truncated, DHFR fusion (Arabidopsis thaliana); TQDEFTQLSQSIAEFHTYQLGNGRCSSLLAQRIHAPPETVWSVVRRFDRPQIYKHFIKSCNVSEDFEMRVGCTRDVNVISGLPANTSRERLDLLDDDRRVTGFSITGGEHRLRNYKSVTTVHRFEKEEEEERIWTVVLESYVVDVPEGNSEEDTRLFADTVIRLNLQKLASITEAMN
`I12N` — result for “relative binding score”: -9.13%.
For `G81P`, “relative binding score” read 27.6%.
For `D3K`, “relative binding score” read 21.7%.
For `W134M`, “relative binding score” read 69.7%.
Under “relative binding score”, `S26L` is recorded as -7.81%.
Under “relative binding score”, `S117L` is recorded as 5.83%.
For `Y18W`, “relative binding score” read 39.6%.
`E129K`: “relative binding score” 61.1%.
`N61L`: “relative binding score” 47.3%.
Under “relative binding score”, `R90G` is recorded as -2.9%.
`A84Y`: “relative binding score” 82.8%.
`F124N` — result for “relative binding score”: 10.4%.
`R163L` — result for “relative binding score”: -0.832%.
Under “relative binding score”, `H34G` is recorded as 33.8%.
`Q31E`: “relative binding score” 0.518%.
`L138R` — result for “relative binding score”: -0.688%.
Under “relative binding score”, `V40M` is recorded as -1.93%.
Under “relative binding score”, `P36H` is recorded as 57.9%.
For `R90F`, “relative binding score” read 4.77%.

Set 3 — organism: Saccharomyces cerevisiae; observed: binding; method: yeast competitive growth sequencing; form: peptide; strain: cyclin A1-Cln2 strain; medium: peptide tiling library; notes: pooled screen; reading: direction not given
The enrichment score of `RRVLCFDS` is reported as -1.23.
For `PQWPCGKHKRVLIFAS`, the enrichment score was -1.11.
For `VSRNLRSSLKSSLHTL`, the enrichment score was -2.84.
For `LRRKLFLDGNGSIS`, the enrichment score was -1.42.
With `NNIRKALSFDNRGEEH` the enrichment score was -1.63.
The enrichment score of `RKLHFEDEVT` is reported as -0.0112.
With `SCCKRKLVVGNGPEGP` the enrichment score was -0.668.
With `ARKRLELGNLGNPQ` the enrichment score was -1.15.
With `GFGFLLFICKLTF` the enrichment score was -1.32.
For `LRRQLSFSED`, the enrichment score was 0.411.

Set 4 — method: RNA Bind-n-Seq; form: RNA; medium: in vitro; concentration: 1 µM; notes: whole 134-nt RNA, ends assumed; together with: 150 mM KCl; reference: input library; reading: higher = stronger binding
Target: Ras GTPase-activating protein-binding protein 1, C-terminal RGG region (G3BP1, Homo sapiens, UniProt Q13283)
Sequence of UniProt Q13283 (whole entry, looked up): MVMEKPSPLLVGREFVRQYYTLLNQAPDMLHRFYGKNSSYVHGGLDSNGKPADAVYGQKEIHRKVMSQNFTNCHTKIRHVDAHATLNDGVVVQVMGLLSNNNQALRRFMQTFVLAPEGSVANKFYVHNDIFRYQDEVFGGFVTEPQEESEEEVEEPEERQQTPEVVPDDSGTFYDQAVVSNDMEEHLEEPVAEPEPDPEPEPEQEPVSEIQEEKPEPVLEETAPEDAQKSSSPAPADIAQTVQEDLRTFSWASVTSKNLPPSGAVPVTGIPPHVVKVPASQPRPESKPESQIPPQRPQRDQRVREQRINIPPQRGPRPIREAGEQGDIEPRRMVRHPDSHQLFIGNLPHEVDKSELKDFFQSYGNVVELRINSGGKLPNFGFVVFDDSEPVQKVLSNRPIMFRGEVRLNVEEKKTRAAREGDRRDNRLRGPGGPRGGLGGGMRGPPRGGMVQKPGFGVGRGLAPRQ
`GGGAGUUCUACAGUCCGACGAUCCAAGUCCUGUGCUACACAUCGUAUGUACCGAAUCGGGGCCCGGCCCGGGGCCCGGGAAAGUAUUAUGUUACGCCGUUCGGAUCUGCACUUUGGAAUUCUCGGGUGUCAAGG` gave a log2 enrichment of -2.13.
With `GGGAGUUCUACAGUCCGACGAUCCUCAAGUCCUGUGCUACACAUCGUAUGUACCGAAUCGGAAAGGAAAGGAAAGGGAAAGUAUUAUGUUACGCCGUUCGGAUCUGCACUUCCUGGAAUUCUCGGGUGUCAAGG` the log2 enrichment was -1.41.
With `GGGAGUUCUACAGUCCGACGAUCAGUCCUGUGCUACACAUCGUAUGUACCGAAUCGGUUUUUGGUUUUUGGGUUUUUGGGAAAGUAUUAUGUUACGCCGUUCGGAUCUGCACUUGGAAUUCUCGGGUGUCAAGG` the log2 enrichment was -1.52.
For `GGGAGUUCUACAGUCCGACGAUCGUCCUGUGCUACACAUCGUAUGUACCGAAUCGGGGUUUUUGGGGAAAGGGGUUUGGGGAAAGUAUUAUGUUACGCCGUUCGGAUCUGCACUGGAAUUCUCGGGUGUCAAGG`, the log2 enrichment was 3.08.
`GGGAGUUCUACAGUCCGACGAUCGCAGGAAGUAAAAACAAAUGGAAAAAAUUCGGAUAGUGGCAGGGGUGGGGGUUGCUAAGGAAAGGGUGGGAUGGGAGUGGGUAAAGAGUUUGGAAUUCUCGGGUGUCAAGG` gave a log2 enrichment of 1.28.
`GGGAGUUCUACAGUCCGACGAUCAAGUCCUGUGCUACACAUCGUAUGUACCGAAUCGGGGCCCGGGGCCCGGGGCCCGGGAAAGUAUUAUGUUACGCCGUUCGGAUCUGCACUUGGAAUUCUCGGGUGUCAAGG` gave a log2 enrichment of -2.63.
For `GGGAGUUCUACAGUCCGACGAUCCGCUAAAGAGGAGCACGGUGGACUGAUGUGAGCUUCUCUUCCUGCCCCUUCCUCCCUGAUGUCCACUCCCUUCACCUUCCUCACGCCCGUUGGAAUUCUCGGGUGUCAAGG`, the log2 enrichment was 0.0574.
`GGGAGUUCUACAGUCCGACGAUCAAGUCCUGUGCUACACAUCGUAUGUACCGAAUCGGGUUUGGGGUUUGGGGUUUGGGGAAAGUAUUAUGUUACGCCGUUCGGAUCUGCACUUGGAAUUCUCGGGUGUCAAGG` has a log2 enrichment of 1.53.
`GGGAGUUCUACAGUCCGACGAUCAGUCCUGUGCUACACAUCGUAUGUACCGAAUCGGUUUUUGGGUUUUUGGGGUUUUUGGAAAGUAUUAUGUUACGCCGUUCGGAUCUGCACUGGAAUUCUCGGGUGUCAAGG` gave a log2 enrichment of -1.16.
`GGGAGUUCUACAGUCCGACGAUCUCAAGUCCUGUGCUACACAUCGUAUGUACCGAAUCGGAAAAAAAGGUGGUUUGGAAAGUAUUAUGUUACGCCGUUCGGAUCUGCACUUCCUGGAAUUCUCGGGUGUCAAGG` has a log2 enrichment of -1.43.

Some of these lines once more (set 3):
For `VSRNLRSSLKSSLHTL`, the enrichment score was -2.84.
For `LRRKLFLDGNGSIS`, the enrichment score was -1.42.
With `NNIRKALSFDNRGEEH` the enrichment score was -1.63.
